{"data": "Measured values collected from several papers", "note": "Each numbered part is a random draw from the data of one study; scales do not carry over between parts.", "chain of UniProt O43353 (whole entry, looked up)": "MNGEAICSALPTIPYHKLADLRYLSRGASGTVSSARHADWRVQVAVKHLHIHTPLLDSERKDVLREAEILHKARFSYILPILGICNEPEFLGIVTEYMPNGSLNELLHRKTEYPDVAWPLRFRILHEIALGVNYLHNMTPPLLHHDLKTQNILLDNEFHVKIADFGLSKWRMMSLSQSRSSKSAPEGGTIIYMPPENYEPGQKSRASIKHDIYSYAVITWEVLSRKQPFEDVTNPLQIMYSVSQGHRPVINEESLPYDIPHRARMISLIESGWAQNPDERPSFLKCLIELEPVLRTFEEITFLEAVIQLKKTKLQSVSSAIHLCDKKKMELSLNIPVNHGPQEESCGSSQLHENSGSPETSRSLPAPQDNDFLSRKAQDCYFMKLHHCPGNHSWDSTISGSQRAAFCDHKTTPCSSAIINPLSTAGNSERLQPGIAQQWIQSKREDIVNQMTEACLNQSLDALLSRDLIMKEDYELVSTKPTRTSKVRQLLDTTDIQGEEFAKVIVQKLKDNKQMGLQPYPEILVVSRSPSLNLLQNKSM", "chain of UniProt Q9H0K1 (whole entry, looked up)": "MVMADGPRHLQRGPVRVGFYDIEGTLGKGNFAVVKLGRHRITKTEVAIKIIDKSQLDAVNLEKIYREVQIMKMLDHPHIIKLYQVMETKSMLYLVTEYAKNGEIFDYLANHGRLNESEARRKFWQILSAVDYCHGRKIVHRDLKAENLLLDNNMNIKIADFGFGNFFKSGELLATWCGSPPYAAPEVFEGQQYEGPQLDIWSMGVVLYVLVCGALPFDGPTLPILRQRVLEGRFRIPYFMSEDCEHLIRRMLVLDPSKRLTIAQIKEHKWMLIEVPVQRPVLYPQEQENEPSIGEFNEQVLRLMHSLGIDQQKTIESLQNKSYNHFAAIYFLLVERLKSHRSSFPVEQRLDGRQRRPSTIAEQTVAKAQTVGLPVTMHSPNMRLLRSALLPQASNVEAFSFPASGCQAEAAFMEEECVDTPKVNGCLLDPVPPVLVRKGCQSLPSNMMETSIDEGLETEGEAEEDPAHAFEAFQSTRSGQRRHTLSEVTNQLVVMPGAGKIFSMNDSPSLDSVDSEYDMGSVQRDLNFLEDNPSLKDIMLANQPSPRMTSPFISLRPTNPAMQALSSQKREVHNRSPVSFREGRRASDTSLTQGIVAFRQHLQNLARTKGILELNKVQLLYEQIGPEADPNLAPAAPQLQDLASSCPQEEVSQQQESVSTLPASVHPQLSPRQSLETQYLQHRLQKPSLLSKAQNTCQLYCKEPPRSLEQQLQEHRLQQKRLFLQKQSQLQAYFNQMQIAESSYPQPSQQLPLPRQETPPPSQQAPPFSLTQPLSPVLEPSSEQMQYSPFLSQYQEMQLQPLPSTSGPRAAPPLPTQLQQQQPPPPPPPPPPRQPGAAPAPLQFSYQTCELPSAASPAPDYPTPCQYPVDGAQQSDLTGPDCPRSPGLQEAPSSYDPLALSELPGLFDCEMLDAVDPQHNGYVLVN", "chain of UniProt Q96J92 (whole entry, looked up)": "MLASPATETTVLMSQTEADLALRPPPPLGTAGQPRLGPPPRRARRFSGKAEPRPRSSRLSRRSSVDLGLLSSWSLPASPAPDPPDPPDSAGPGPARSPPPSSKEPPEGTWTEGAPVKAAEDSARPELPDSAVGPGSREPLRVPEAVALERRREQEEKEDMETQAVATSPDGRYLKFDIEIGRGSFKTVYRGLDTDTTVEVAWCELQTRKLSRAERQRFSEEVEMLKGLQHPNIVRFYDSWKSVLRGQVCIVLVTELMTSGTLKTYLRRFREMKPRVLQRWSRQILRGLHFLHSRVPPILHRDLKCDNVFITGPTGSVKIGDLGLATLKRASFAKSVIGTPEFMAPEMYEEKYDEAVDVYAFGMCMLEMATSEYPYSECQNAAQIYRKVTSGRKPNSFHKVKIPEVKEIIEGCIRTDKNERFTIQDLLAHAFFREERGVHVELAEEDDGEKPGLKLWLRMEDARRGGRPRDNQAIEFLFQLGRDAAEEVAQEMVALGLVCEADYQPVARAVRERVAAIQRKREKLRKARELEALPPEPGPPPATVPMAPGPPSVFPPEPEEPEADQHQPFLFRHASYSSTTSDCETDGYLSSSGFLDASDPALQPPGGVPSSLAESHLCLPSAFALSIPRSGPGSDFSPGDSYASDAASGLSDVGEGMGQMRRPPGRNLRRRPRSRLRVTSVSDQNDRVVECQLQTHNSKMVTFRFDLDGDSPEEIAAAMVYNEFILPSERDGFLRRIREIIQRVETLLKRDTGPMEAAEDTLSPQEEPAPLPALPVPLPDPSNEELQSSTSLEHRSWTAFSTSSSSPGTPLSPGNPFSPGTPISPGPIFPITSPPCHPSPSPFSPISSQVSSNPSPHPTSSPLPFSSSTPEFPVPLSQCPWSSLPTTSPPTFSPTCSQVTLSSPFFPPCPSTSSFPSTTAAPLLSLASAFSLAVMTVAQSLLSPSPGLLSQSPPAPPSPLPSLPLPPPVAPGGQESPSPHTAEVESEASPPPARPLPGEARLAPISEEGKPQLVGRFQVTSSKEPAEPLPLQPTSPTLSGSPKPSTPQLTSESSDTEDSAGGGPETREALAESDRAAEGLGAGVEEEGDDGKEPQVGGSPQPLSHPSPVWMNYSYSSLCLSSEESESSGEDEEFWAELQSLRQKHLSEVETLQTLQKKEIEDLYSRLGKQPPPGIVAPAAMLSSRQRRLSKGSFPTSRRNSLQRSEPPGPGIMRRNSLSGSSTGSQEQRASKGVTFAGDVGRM"}
{"data": "Study 1", "SMILES": "O=c1nc(-c2ccccn2)sc2ccccc12", "method": "competition with immobilised ligand", "tested at": "1 µM"}
{"target": "Mitogen-activated protein kinase 4 (MAPK4, Homo sapiens, UniProt P31152)", "test": "binding", "remaining binding": "100%"}
{"target": "Phosphatidylinositol 3-kinase C2 domain-containing subunit gamma (PIK3C2G, Homo sapiens, UniProt O75747)", "test": "binding", "remaining binding": "100%"}
{"target": "Serine/threonine-protein kinase Sgk3 (SGK3, Homo sapiens, UniProt Q96BR1)", "test": "binding", "remaining binding": "100%"}
{"target": "Phosphorylase b kinase gamma catalytic chain, liver/testis isoform (PHKG2, Homo sapiens, UniProt P15735)", "test": "cell-free assay", "remaining binding": "77%"}
{"target": "MAP kinase-interacting serine/threonine-protein kinase 1 (MKNK1, Homo sapiens, UniProt Q9BUB5)", "test": "binding", "remaining binding": "89%"}
{"target": "Proto-oncogene tyrosine-protein kinase receptor Ret (RET, Homo sapiens, UniProt P07949, V804L)", "test": "binding", "remaining binding": "70%"}
{"target": "Cyclin-dependent kinase 4 (CDK4, Homo sapiens, UniProt P11802)", "test": "binding", "remaining binding": "100%"}
{"target": "Serine/threonine-protein kinase 33 (STK33, Homo sapiens, UniProt Q9BYT3)", "test": "binding", "remaining binding": "87%"}
{"target": "Tyrosine-protein kinase CSK (CSK, Homo sapiens, UniProt P41240)", "test": "cell-free assay", "remaining binding": "100%"}
{"target": "Serine/threonine-protein kinase PLK3 (PLK3, Homo sapiens, UniProt Q9H4B4)", "test": "binding", "remaining binding": "82%"}
{"target": "Phosphatidylinositol 4,5-bisphosphate 3-kinase catalytic subunit alpha isoform (PIK3CA, Homo sapiens, UniProt P42336)", "test": "cell-free assay", "remaining binding": "100%"}
{"target": "Serine/threonine-protein kinase mTOR (MTOR, Homo sapiens, UniProt P42345)", "test": "cell-free assay", "remaining binding": "100%"}
{"target": "Serine/threonine-protein kinase SIK2 (SIK2, Homo sapiens, UniProt Q9H0K1)", "test": "binding", "remaining binding": "86%"}
{"target": "Serine/threonine-protein kinase PAK 3 (PAK3, Homo sapiens, UniProt O75914)", "test": "cell-free assay", "remaining binding": "84%"}
{"target": "Rhodopsin kinase GRK7 (GRK7, Homo sapiens, UniProt Q8WTQ7)", "test": "binding", "remaining binding": "89%"}
{"target": "Ephrin type-A receptor 3 (EPHA3, Homo sapiens, UniProt P29320)", "test": "cell-free assay", "remaining binding": "87%"}
{"target": "Serine/threonine-protein kinase Sgk1 (SGK1, Homo sapiens, UniProt O00141)", "test": "binding", "remaining binding": "99%"}
{"target": "Receptor-type tyrosine-protein kinase FLT3 (FLT3, Homo sapiens, UniProt P36888, ITD)", "test": "binding", "remaining binding": "100%"}
{"target": "TGF-beta receptor type-2 (TGFBR2, Homo sapiens, UniProt P37173)", "test": "cell-free assay", "remaining binding": "100%"}
{"target": "Serine/threonine-protein kinase WNK4 (WNK4, Homo sapiens, UniProt Q96J92)", "test": "binding", "remaining binding": "100%"}
{"target": "Epidermal growth factor receptor (EGFR, Homo sapiens, UniProt P00533)", "test": "cell-free assay", "remaining binding": "70%"}
{"target": "Tyrosine-protein kinase ABL1, phosphorylated (ABL1, Homo sapiens, UniProt P00519, E255K)", "test": "binding", "remaining binding": "100%"}
{"target": "Receptor-interacting serine/threonine-protein kinase 2 (RIPK2, Homo sapiens, UniProt O43353)", "test": "binding", "remaining binding": "82%"}
{"target": "Beta-adrenergic receptor kinase 1 (GRK2, Homo sapiens, UniProt P25098)", "test": "binding", "remaining binding": "65%"}
{"target": "Serine/threonine-protein kinase PAK 4 (PAK4, Homo sapiens, UniProt O96013)", "test": "cell-free assay", "remaining binding": "86%"}
{"data": "Study 2", "target": "Serine/threonine-protein kinase PLK1 (PLK1, Homo sapiens, UniProt P53350)", "observed": "enzyme activity", "action": "inhibitor", "tested at": "0.5 µM", "baseline": "control", "chain of UniProt P53350 (whole entry, looked up)": "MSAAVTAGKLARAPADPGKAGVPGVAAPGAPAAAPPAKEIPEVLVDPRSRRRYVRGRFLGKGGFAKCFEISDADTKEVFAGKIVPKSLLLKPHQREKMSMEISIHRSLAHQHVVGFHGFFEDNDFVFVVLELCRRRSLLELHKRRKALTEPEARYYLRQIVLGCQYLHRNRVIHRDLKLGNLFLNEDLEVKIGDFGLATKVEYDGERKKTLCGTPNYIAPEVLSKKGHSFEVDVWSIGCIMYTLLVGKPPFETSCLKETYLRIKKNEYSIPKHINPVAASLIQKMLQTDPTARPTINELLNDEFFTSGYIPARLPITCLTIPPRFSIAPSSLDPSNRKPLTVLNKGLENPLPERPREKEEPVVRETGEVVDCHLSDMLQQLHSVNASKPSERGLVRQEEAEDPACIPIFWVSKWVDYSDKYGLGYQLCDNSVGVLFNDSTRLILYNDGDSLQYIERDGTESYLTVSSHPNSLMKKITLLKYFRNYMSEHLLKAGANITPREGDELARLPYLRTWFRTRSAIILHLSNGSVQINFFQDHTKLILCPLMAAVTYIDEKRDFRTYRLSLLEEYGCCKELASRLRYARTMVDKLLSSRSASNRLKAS"}
{"Compound": "O=C(Nc1cccc(Nc2nccc(Nc3cccc(C(F)(F)F)c3)n2)c1)C1CC1", "remaining activity [%]": 91.7}
{"Compound": "COc1cc2ncnc(Nc3cccc(Cl)c3)c2cc1OC", "remaining activity [%]": 105}
{"Compound": "O=C(NC(NC(=S)Nc1ccc(F)c([N+](=O)[O-])c1)C(Cl)(Cl)Cl)C(c1ccccc1)c1ccccc1 (centres unmarked)", "remaining activity [%]": 111}
{"Compound": "Cn1nc2c3c(cccc31)C(=O)c1ccccc1-2", "remaining activity [%]": 97}
{"Compound": "COc1cc2c(cc1OC)-c1[nH]nc(Nc3cccc(F)c3)c1C2", "remaining activity [%]": 102}
{"Compound": "O=C1C(Cl)=C(N2C(=O)CCC2=O)C(=O)c2ccccc21", "remaining activity [%]": 97.6}
{"Compound": "O=C1c2ccccc2-c2n[nH]c3cccc1c23", "remaining activity [%]": 95.1}
{"Compound": "N#Cc1c(NC(=O)c2cccc3ccccc23)sc2c1CCCC2", "remaining activity [%]": 96.4}
{"Compound": "Ic1cccc(CSc2nnc(-c3ccncc3)o2)c1", "remaining activity [%]": 98.6}
{"Compound": "O=c1cc(-c2cccc3c2Sc2ccccc2S3)oc(N2CCOCC2)c1", "remaining activity [%]": 102}
{"Compound": "c1ccc(-c2[nH]ncc2-c2ccnc3ccccc23)nc1", "remaining activity [%]": 102}
{"Compound": "Cc1cc2ncc(-c3ccccc3)nc2cc1C", "remaining activity [%]": 101}
{"Compound": "Cc1nc2cc3nc(-c4cccs4)cnc3cc2n1C", "remaining activity [%]": 109}
{"Compound": "Cc1cn(-c2cc(NC(=O)c3ccc(C)c(Nc4nccc(-c5cccnc5)n4)c3)cc(C(F)(F)F)c2)cn1", "remaining activity [%]": 97}
{"Compound": "CN(C)C[C@H]1CCn2c(c(C3=C(c4cn(C)c5ccccc45)C(=O)NC3=O)c3ccccc32)C1", "remaining activity [%]": 102}
{"Compound": "Nc1cccc(-c2cc3c(Oc4cccc(O)c4)ncnc3[nH]2)c1", "remaining activity [%]": 104}
{"Compound": "CCN(CC)CCNC(=O)c1c(C)[nH]c(/C=C2\\C(=O)Nc3ccc(Cl)cc32)c1C", "remaining activity [%]": 105}
{"Compound": "CCOc1nc(NC(=O)Cc2cc(OC)ccc2OC)cc(N)c1C#N", "remaining activity [%]": 95.3}
{"Compound": "C[C@@H]1CCN(C(=O)CC#N)C[C@@H]1N(C)c1ncnc2[nH]ccc12", "remaining activity [%]": 101}
{"Compound": "N#C/C(=C\\c1ccc(O)c(O)c1)C(=O)NCc1ccccc1", "remaining activity [%]": 97.3}
{"Compound": "c1ccc(-c2cnc(Nc3ccc(OCCN4CCCC4)cc3)s2)cc1", "remaining activity [%]": 101}
{"Compound": "CCN(CC)C(=O)c1ccc(Nc2nc(OCC3CCCCC3)c3[nH]cnc3n2)cc1", "remaining activity [%]": 91.4}
{"Compound": "COc1cc2ncnc(Nc3ccc(O)c(Br)c3)c2cc1OC", "remaining activity [%]": 98.8}
{"Compound": "CN([C@@H](Cc1ccc(OS(=O)(=O)c2cccc3cnccc23)cc1)C(=O)N1CCN(c2ccccc2)CC1)S(=O)(=O)c1cccc2cnccc12", "remaining activity [%]": 96.7}
{"data": "Study 3", "target": "Calcium/calmodulin-dependent protein kinase type II subunit alpha (CAMK2A, Homo sapiens, UniProt Q9UQM7)", "observed": "enzyme activity", "action": "inhibitor", "tested at": "10 µM", "chain of UniProt Q9UQM7 (whole entry, looked up)": "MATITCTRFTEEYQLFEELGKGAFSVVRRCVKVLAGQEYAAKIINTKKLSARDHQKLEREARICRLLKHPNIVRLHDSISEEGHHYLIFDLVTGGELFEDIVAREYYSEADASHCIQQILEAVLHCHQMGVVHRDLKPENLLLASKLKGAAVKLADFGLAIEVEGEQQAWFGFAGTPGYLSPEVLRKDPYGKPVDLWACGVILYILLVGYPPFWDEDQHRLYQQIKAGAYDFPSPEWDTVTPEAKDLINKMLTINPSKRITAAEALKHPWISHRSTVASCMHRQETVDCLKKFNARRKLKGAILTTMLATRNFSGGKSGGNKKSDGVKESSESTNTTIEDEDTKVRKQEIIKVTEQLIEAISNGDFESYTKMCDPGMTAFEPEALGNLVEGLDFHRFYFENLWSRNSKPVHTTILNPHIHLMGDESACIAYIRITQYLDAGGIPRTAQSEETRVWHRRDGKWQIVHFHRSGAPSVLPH"}
{"SMILES": "Cc1cc(O)c(C(=O)CCC(C)C)c(=O)o1", "inhibition": "-16%"}
{"SMILES": "NCC(N)C(=O)O (centres unmarked)", "inhibition": "11%"}
{"SMILES": "C=CCc1cc(OC)c(O[C@@H](C)[C@H](O)c2ccc(O)c(OC)c2)c(OC)c1", "inhibition": "-16%"}
{"SMILES": "C[N+](C)(C)CCO", "inhibition": "-6%"}
{"SMILES": "NC(=O)c1ccn(-c2cnc(NC[C@]3(c4ncccc4F)C[C@H](F)C3)nc2)c1", "inhibition": "-5%"}
{"SMILES": "CN(C)c1cc(CNCC(C)(C)C)c(O)c2c1C[C@H]1C[C@H]3[C@H](N(C)C)C(=O)C(C(N)=O)=C(O)[C@@]3(O)C(=O)C1=C2O", "inhibition": "-6%"}
{"SMILES": "NCCC(=O)O", "inhibition": "8%"}
{"SMILES": "C=CCc1ccc(O)c(OC)c1", "inhibition": "5%"}
{"SMILES": "COc1cc(CCO)ccc1O", "inhibition": "4%"}
{"SMILES": "CC(=O)N(CC(O)CO)c1c(I)c(C(=O)NCC(O)CO)c(I)c(C(=O)NCC(O)CO)c1I (mixture of isomers)", "inhibition": "-7%"}
{"SMILES": "Cc1cn([C@H]2C[C@H](O)[C@@H](CO)O2)c(=O)nc1N", "inhibition": "-10%"}
{"data": "Study 4", "SMILES": "COc1ccc2[nH]c3c4[nH]c5ccc(OC)cc5c4c4c(c3c2c1)C(=O)NC4=O", "method": "competitive binding panel", "tested at": "1 µM", "baseline": "vehicle"}
{"target": "Activin receptor type-1-like (ACVRL1, Homo sapiens, UniProt P37023)", "remaining binding": "100%"}
{"target": "Discoidin domain-containing receptor 2 (DDR2, Homo sapiens, UniProt Q16832)", "remaining binding": "72%"}
{"target": "Serine/threonine-protein kinase PAK 5 (PAK5, Homo sapiens, UniProt Q9P286)", "test": "refers to: PAK7", "remaining binding": "91%"}
{"target": "Testis-specific serine/threonine-protein kinase 3 (TSSK3, Homo sapiens, UniProt Q96PN8)", "remaining binding": "89%"}
{"target": "Tyrosine-protein kinase Fes/Fps (FES, Homo sapiens, UniProt P07332)", "remaining binding": "86%"}
{"target": "Rho-associated protein kinase 1 (ROCK1, Homo sapiens, UniProt Q13464)", "remaining binding": "72%"}
{"target": "Casein kinase I isoform epsilon (CSNK1E, Homo sapiens, UniProt P49674)", "remaining binding": "52%"}
{"target": "Serine/threonine-protein kinase haspin (HASPIN, Homo sapiens, UniProt Q8TF76)", "remaining binding": "76%"}
{"target": "Cyclin-dependent kinase 14 (CDK14, Homo sapiens, UniProt O94921)", "test": "refers to: PFTK1", "remaining binding": "85%"}
{"target": "Myosin-IIIb (MYO3B, Homo sapiens, UniProt Q8WXR4)", "remaining binding": "100%"}
{"target": "Tyrosine-protein kinase BTK (BTK, Homo sapiens, UniProt Q06187)", "remaining binding": "74%"}
{"target": "Dual specificity protein kinase TTK (TTK, Homo sapiens, UniProt P33981)", "remaining binding": "50%"}
{"target": "Dual specificity protein kinase CLK1 (CLK1, Homo sapiens, UniProt P49759)", "remaining binding": "80%"}
{"target": "Dual specificity mitogen-activated protein kinase kinase 7 (MAP2K7, Homo sapiens, UniProt O14733)", "test": "refers to: MKK7", "remaining binding": "88%"}
